Measurements gathered from unrelated publications.
A part holds a random share of what one study measured. Substitutions count along the parent as printed.
Chain of UniProt O43293 (whole entry, looked up): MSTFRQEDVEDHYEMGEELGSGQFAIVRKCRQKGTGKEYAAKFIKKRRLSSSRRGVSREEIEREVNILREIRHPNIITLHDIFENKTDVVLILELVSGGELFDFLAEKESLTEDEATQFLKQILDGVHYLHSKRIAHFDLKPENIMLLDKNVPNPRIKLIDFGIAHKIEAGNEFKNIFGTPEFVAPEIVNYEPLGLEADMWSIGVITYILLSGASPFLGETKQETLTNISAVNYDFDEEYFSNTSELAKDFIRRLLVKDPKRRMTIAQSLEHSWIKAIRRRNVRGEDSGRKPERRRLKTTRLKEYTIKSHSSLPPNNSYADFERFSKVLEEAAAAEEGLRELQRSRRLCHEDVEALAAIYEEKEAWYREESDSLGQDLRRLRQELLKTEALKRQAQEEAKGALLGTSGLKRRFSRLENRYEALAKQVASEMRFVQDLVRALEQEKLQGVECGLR
Chain of UniProt P21709 (whole entry, looked up): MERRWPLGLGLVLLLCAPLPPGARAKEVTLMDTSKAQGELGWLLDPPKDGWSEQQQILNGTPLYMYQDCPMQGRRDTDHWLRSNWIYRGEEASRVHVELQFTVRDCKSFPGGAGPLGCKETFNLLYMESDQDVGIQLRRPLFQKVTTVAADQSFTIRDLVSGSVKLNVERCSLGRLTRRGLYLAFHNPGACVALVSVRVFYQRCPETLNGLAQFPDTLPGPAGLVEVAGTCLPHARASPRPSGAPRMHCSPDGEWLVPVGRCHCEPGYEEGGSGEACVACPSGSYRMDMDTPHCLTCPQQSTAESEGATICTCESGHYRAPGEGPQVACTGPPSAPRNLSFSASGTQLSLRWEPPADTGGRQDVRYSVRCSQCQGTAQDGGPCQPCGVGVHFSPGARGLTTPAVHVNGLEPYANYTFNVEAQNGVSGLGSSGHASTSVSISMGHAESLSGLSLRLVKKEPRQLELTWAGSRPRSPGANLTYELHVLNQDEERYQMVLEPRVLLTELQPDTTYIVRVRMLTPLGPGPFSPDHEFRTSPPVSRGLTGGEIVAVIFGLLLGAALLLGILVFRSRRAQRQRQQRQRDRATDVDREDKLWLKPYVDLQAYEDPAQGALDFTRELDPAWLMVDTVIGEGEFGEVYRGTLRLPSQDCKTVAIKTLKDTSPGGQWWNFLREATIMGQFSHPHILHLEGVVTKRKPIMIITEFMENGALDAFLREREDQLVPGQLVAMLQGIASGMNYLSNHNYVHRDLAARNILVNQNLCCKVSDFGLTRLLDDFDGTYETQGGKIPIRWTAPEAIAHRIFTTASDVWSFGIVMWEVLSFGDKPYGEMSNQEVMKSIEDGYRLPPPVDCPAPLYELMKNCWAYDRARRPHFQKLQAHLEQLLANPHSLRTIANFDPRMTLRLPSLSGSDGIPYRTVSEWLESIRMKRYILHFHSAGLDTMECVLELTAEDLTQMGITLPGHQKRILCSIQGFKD
Chain of UniProt P42684 (whole entry, looked up): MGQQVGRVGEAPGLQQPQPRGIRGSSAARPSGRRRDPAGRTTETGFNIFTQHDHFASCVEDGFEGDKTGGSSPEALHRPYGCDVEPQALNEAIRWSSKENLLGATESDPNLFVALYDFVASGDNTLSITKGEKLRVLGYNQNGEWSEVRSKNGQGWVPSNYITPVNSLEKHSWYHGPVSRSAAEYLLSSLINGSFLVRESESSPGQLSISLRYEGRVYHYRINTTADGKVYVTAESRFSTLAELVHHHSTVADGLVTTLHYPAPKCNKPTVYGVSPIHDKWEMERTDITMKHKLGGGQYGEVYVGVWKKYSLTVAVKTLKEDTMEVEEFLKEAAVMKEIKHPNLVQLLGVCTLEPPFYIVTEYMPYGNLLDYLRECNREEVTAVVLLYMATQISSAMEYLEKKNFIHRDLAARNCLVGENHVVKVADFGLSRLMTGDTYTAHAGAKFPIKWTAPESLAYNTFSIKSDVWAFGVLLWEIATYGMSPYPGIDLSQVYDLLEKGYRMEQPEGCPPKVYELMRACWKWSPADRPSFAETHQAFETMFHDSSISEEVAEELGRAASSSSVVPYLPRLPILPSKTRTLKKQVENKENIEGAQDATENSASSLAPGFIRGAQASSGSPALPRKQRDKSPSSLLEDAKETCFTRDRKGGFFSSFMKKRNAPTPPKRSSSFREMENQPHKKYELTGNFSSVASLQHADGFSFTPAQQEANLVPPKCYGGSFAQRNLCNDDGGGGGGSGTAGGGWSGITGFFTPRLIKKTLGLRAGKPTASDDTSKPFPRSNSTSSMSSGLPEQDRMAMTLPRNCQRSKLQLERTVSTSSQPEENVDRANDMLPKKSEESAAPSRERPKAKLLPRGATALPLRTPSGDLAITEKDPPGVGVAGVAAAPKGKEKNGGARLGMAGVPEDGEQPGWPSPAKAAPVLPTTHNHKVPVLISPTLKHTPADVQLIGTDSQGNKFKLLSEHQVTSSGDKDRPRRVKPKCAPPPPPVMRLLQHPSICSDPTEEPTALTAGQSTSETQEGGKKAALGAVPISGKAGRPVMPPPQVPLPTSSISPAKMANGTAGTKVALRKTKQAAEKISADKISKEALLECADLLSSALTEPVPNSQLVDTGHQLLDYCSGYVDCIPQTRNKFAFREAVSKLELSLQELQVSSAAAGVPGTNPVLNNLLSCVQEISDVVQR
Chain of UniProt Q9Y2H1 (whole entry, looked up): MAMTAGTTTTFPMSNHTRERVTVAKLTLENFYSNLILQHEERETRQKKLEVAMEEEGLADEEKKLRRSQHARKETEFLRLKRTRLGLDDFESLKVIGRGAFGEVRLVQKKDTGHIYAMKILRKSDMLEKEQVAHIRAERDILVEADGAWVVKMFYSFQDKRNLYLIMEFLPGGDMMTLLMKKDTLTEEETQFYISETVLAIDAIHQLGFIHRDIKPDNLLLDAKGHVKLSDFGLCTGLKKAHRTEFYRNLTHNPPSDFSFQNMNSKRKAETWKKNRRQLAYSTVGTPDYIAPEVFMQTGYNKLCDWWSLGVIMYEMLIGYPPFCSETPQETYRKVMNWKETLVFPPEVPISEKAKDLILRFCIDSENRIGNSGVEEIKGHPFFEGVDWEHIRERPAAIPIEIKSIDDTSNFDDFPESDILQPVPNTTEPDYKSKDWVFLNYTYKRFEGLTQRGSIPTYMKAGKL
Chain of UniProt Q8NEV4 (whole entry, looked up): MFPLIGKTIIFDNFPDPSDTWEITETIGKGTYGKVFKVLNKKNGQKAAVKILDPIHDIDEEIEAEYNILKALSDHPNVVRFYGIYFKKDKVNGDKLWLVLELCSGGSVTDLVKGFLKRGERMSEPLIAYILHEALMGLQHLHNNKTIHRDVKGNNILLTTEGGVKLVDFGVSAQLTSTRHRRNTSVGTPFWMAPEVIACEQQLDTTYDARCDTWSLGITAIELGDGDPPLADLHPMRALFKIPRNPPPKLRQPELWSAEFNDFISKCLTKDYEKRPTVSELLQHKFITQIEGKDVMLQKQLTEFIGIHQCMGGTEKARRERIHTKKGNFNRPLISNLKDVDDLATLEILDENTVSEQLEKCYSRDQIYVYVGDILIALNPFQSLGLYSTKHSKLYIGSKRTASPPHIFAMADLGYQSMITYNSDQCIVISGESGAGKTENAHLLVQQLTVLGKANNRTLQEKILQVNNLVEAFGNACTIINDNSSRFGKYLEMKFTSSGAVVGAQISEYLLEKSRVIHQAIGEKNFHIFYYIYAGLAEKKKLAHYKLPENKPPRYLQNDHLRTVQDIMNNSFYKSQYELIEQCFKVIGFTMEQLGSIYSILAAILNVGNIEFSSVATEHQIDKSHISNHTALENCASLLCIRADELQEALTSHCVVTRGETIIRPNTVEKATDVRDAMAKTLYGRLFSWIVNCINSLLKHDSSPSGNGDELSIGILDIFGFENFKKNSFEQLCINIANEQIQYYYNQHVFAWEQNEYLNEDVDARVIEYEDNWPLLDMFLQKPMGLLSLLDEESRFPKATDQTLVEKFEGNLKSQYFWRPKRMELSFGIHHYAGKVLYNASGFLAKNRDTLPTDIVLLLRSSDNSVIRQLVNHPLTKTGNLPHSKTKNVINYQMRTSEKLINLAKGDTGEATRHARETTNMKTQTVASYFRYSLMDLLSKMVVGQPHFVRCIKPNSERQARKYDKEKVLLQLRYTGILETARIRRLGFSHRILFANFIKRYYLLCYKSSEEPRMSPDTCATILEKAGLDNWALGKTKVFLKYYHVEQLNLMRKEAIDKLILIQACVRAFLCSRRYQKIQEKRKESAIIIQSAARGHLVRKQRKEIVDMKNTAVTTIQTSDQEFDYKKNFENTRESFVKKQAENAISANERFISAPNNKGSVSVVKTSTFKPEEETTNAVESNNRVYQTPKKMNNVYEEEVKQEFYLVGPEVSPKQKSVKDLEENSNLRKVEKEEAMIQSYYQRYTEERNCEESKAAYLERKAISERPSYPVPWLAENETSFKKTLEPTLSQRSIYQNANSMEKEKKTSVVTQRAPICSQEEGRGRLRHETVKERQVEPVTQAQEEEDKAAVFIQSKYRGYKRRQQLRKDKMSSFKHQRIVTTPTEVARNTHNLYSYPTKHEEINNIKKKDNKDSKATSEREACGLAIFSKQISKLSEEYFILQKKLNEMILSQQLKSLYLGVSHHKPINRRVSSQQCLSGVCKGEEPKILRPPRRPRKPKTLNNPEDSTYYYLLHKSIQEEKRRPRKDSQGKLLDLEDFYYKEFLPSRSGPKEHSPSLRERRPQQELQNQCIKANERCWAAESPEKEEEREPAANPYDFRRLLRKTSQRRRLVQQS
Chain of UniProt P49137 (whole entry, looked up): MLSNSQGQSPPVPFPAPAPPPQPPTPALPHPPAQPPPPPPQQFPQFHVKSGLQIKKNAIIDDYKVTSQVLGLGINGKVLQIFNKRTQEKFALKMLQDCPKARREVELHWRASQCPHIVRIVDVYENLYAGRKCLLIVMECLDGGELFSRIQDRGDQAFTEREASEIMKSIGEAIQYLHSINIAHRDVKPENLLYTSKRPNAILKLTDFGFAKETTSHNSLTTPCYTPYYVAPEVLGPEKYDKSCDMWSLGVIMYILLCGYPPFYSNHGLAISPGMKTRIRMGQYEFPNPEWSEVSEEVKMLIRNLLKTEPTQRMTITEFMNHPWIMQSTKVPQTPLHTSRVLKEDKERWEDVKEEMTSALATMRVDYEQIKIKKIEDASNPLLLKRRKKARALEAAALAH

Set 1
Target: Sal-like protein 4, full length isoform B (SALL4, Homo sapiens, UniProt Q9UJQ4-2, residues 1-616)
Method: universal PBM
Form: double-stranded DNA, one strand shown
Sample: in vitro
Concentration: not given
Setting: 8-mer, flanks averaged, mean of replicates
Reading: higher = stronger binding
Residues (chain): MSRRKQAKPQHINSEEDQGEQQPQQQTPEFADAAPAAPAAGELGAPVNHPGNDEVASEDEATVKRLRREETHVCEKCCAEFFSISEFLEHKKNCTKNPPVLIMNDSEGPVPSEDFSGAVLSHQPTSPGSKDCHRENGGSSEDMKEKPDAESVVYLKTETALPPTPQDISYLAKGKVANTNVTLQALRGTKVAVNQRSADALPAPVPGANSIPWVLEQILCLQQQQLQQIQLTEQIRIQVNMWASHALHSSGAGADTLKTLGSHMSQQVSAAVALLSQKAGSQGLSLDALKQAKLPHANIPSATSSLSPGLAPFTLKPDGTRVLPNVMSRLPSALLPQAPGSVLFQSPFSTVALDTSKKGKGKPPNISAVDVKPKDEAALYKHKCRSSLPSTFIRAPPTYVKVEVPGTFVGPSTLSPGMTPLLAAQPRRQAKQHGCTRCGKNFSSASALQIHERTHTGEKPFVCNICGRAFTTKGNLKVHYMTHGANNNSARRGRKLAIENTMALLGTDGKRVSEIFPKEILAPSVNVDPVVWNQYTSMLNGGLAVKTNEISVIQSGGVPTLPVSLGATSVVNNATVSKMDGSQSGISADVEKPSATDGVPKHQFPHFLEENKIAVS
| Strand | E-score |
| --- | --- |
| CCATTAGC | 0.00893 |
| ACAATAAC | 0.386 |
| ACCGGGAG | -0.233 |
| CACTAGGC | -0.118 |
| GAGATGGC | -0.0681 |
| ATGTGGAG | -0.0135 |
| CTAGTGGA | -0.201 |
| CGGTCGTA | -0.132 |

Set 2
SMILES: CN(C)CC#Cc1ccc(OCCCc2sc(N3CCc4cccc(C(=O)Nc5nc6ccccc6s5)c4C3)nc2C(=O)O)c(F)c1
Method: competition with immobilised ligand
Concentration: 1 µM
| target | read-out | remaining binding [%] |
| --- | --- | --- |
| DAPK3 (Homo sapiens, UniProt O43293) | cell-free assay | 90 |
| CDK14 (Homo sapiens, UniProt O94921) | cell-free assay | 100 |
| CDK2 (Homo sapiens, UniProt P24941) | cell-free assay | 100 |
| Macrophage colony-stimulating factor 1 receptor, autoinhibited (CSF1R, Homo sapiens, UniProt P07333) | cell-free assay | 87 |
| PDGFRB (Homo sapiens, UniProt P09619) | cell-free assay | 94 |
| CLK2 (Homo sapiens, UniProt P49760) | cell-free assay | 83 |
| FLT3 (Homo sapiens, UniProt P36888, D835Y) | cell-free assay | 83 |
| PAK1 (Homo sapiens, UniProt Q13153) | cell-free assay | 98 |
| BLK (Homo sapiens, UniProt P51451) | cell-free assay | 92 |
| Myosin-IIIa (MYO3A, Homo sapiens, UniProt Q8NEV4) | binding | 100 |
| STK38L (Homo sapiens, UniProt Q9Y2H1) | cell-free assay | 83 |
| EPHA1 (Homo sapiens, UniProt P21709) | cell-free assay | 100 |
| CAMK2B (Homo sapiens, UniProt Q13554) | cell-free assay | 79 |
| MAPKAPK2 (Homo sapiens, UniProt P49137) | cell-free assay | 88 |
| ABL2 (Homo sapiens, UniProt P42684) | cell-free assay | 100 |
| EGFR (Homo sapiens, UniProt P00533, L858R/T790M) | cell-free assay | 100 |

Set 3
Target: CCND2, cyclin fold, Cln2 fusion (human)
Method: yeast growth competition, sequencing
Sample: yeast
Setting: weak parent motif
Relative to: not given
Reading: higher = stronger binding
Parent: ORC1 docking peptide (human); PRARKRLELGNLG; partner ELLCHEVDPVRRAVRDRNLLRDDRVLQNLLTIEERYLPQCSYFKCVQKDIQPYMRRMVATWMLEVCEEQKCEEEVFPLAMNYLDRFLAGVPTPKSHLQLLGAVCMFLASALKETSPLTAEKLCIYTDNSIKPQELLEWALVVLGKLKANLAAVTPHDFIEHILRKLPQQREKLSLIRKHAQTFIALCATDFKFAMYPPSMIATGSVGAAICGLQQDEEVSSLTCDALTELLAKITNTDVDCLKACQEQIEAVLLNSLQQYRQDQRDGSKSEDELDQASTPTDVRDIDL
| Substitution | normalised enrichment score |
| --- | --- |
| PRARKRLELFNLG [G10F] | -0.134 |
| PRAPKRLELGNLG [R4P] | 0.0836 |
| PRARKRDELGNLG [L7D] | -0.204 |
| PRARKRLENGNLG [L9N] | -0.37 |
| PRARKRKELGNLG [L7K] | 0.701 |
| PRDRKRLELGNLG [A3D] | 0.196 |
| PSARKRLELGNLG [R2S] | -0.299 |
| PRARKRLELGYLG [N11Y] | 0.69 |

Set 4
Target: Tyrosine-protein kinase receptor TYRO3 (TYRO3, Homo sapiens, UniProt Q06418)
Read-out: enzyme activity
Action: inhibitor
Concentration: 0.5 µM
Relative to: control
Construct (Q06418 1-890): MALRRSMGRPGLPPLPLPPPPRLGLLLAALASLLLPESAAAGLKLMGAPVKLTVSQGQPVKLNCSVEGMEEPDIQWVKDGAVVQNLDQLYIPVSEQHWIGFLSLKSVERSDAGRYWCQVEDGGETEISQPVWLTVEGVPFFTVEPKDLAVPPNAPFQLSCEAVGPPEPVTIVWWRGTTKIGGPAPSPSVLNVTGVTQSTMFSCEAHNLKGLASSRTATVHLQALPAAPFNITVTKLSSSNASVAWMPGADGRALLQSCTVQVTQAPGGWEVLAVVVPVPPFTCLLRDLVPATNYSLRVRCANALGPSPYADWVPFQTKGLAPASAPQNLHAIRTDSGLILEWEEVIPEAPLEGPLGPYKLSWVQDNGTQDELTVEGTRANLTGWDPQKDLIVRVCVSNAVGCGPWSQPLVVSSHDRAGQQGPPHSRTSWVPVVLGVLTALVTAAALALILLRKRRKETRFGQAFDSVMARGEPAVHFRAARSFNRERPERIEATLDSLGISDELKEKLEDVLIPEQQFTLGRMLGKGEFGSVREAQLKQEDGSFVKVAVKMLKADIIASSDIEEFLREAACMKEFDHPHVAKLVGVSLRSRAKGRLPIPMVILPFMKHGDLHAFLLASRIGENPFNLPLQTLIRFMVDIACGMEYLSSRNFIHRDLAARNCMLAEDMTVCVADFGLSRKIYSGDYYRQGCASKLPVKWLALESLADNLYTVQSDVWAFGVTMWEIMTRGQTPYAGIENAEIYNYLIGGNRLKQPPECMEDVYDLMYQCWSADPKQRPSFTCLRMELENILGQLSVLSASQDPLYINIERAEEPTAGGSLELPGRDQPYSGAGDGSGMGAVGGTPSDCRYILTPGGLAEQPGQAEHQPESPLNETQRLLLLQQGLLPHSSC
| Structure (SMILES) | remaining activity [%] |
| --- | --- |
| Cc1cccc(-c2[nH]c(C(C)(C)C)nc2-c2ccc3c(c2)OCO3)n1 | 102 |
| Cn1c2ccccc2c2c3c(c4c5ccccc5n(CCC#N)c4c21)CNC3=O | 85.6 |
| CC(C)[C@H](CO)Nc1nc(Nc2cc(N)cc(Cl)c2)c2ncn(C(C)C)c2n1 | 103 |
| Cc1nc(-c2ccccc2)c(-c2ccncc2)o1 | 109 |
| CO[C@H]1C[C@@H]2CC[C@@H](C)[C@@](O)(O2)C(=O)C(=O)N2CCCC[C@H]2C(=O)O[C@H]([C@H](C)C[C@@H]2CC[C@@H](O)[C@H](OC)C2)CC(=O)[C@H](C)/C=C(\C)[C@@H](O)[C@@H](OC)C(=O)[C@H](C)C[C@H](C)/C=C/C=C/C=C/1C | 98.5 |
| COc1cc2ncnc(Nc3ccc(F)c(Cl)c3)c2cc1OCCCN1CCOCC1 | 94.9 |
| Nc1ncnc2n[nH]c(Nc3ccc(F)cc3)c12 | 100 |
| O=c1c2ccccc2[nH]c(=S)n1CCN1CCC(=C(c2ccc(F)cc2)c2ccc(F)cc2)CC1 | 91.1 |
| COc1cc2ncnc(Nc3ccc(Oc4ccccc4)cc3)c2cc1OC | 83.4 |
| Cc1ccc(Nc2nccc(N(C)c3ccc4c(C)n(C)nc4c3)n2)cc1S(N)(=O)=O | 92 |
| COc1ccc(C(=O)Nc2sc3c(c2C(N)=O)CCCC3)cc1OC | 98.1 |
| O=S(=O)(c1cccc2cnccc12)N1CCCNCC1 | 87.9 |
| C#Cc1cccc(Nc2ncnc3cc(OCCOC)c(OCCOC)cc23)c1 | 97 |
| Cc1ccc(NC(=O)c2ccc(CN3CCN(C)CC3)cc2)cc1Nc1nc(-c2cccnc2)cs1 | 98.9 |
| Nc1ccc2ncnc(NCCc3ccc(Oc4ccccc4)cc3)c2c1 | 101 |

Excerpt of the above (set 4):
| Structure (SMILES) | remaining activity [%] |
| --- | --- |
| Cn1c2ccccc2c2c3c(c4c5ccccc5n(CCC#N)c4c21)CNC3=O | 85.6 |
| CC(C)[C@H](CO)Nc1nc(Nc2cc(N)cc(Cl)c2)c2ncn(C(C)C)c2n1 | 103 |
| Cc1nc(-c2ccccc2)c(-c2ccncc2)o1 | 109 |
| CO[C@H]1C[C@@H]2CC[C@@H](C)[C@@](O)(O2)C(=O)C(=O)N2CCCC[C@H]2C(=O)O[C@H]([C@H](C)C[C@@H]2CC[C@@H](O)[C@H](OC)C2)CC(=O)[C@H](C)/C=C(\C)[C@@H](O)[C@@H](OC)C(=O)[C@H](C)C[C@H](C)/C=C/C=C/C=C/1C | 98.5 |
| COc1cc2ncnc(Nc3ccc(F)c(Cl)c3)c2cc1OCCCN1CCOCC1 | 94.9 |
